Published values gathered from unrelated publications.
Compare with care: the assays were run in different laboratories. “And” joins repeats or separate records; there may be more than shown.
Target: Testis-specific serine/threonine-protein kinase 2 (TSSK2, Homo sapiens, UniProt Q96PF2)

| Compound | assay | conditions | how to read | endpoint | value |
| --- | --- | --- | --- | --- | --- |
| O=C=[N][Ru-4]123([n]4c5ccc(O)cc5c5c6c(c7cc(F)c[n+]1c7c54)C(=O)NC6=O)[S+]1CC[S+]2CC[S+]3CC1 (stereo not shown) | enzyme activity | 100 nM, human enzyme, added: 10 µM ATP | reference: untreated | remaining activity | 100% |
| COc1ccc(NC(=O)Nc2ccc3c(c2)C(=O)N(C(C)CO)CC(C)C(CN(C)Cc2ccc4c(c2)OCO4)O3)cc1 (stereo not shown) | kinase activity, KinaseProfiler | 0.03 µM, species human | reference: control | remaining activity | 102% |
| Nc1ncc(-c2cc(-c3cnn(CC(F)(F)F)c3)ncc2F)nc1C(=O)NC1CNCC(F)C1 (stereo not shown) | enzyme activity | 1 µM | reference: DMSO control | remaining activity | 96.7% |
| NC(=O)[C@@H](O)C[C@H]1CCc2sc3ncnc(O[C@H]4CC[C@H](N5CCOCC5)CC4)c3c21 | enzyme activity, inhibitor | 10 µM | – | inhibition | 0% |
| O=C(Cc1ccc(OCc2ccccc2)cc1)NC1(C(=O)O)CCN(C(=O)c2ccc(-c3cccc(Cl)c3)cc2)CC1 | enzyme activity, inhibitor | 10 µM | – | activity vs control | 110% |
| CN1CC[C@@H](COc2cnc(C#N)cc2-c2ccn3nc(NC(=O)C4CC4)cc3c2)C1 | enzyme activity, inhibitor | 1 µM | – | inhibition | 0% |
| C=CC(=O)Nc1cccc(-c2cnc3[nH]cc(C(=O)NC(C)(C)C)c3n2)c1 | enzyme activity, inhibitor | 0.1 µM | – | inhibition | 6% |
| NC(=O)C[C@H]1CCc2sc3ncnc(O[C@H]4CC[C@H](N5CCOCC5)CC4)c3c21 | enzyme activity, inhibitor | 10 µM | – | inhibition | -1% |
| Cc1nc2c(F)cc(-c3nc(Nc4ccc(CNC(=O)CCCCCCC(=O)NO)cc4)ncc3F)cc2n1C(C)C | enzyme activity, inhibitor | 1 µM | – | inhibition | 24% |
| CN1CCN(Cc2ccc(-c3ccc(CO[C@H]4CCC[C@@H]4NC(=O)c4cc(-c5cnn(C)c5)cnc4N)cc3)cc2)CC1 | enzyme activity, inhibitor | 0.1 µM | – | inhibition | 3% |
| CNC(=O)C[C@H](Cc1ccc(C#N)cc1)NC(=O)c1cc(-c2ccc(CN[C@H](C)c3ccc(C)cc3)o2)ccc1Cl | enzyme activity, inhibitor | 1 µM | – | activity vs control | 103% |
| COCC12C(=O)NC3C4(C(OC)CC1O)C1CC5(O)C(OC)C(O)C(OC(C)=O)(C1C5OC(=O)c1ccccc1)C3(O)C(OC)C24 (stereo not shown) | kinase activity, inhibitor, ProQinase kinase profiling | 25 µM | reference: control | remaining activity | 98% and 92% |
| C=CC(=O)N1Cc2nc(-c3cc(-c4cc(Cl)cnc4Cl)c(F)cc3F)n(-c3ccncn3)c2C1 | cell-free assay, inhibitor | 1 µM | – | inhibition | 5.1% |
| Cc1cccc(O[C@H]2CCC[C@@H](C(C)CNCc3ccncc3)C2)c1 (relative stereo) | enzyme activity, inhibitor | 10 µM | – | inhibition | -16% |
| COc1c(OCCCN2CCOCC2)ccc2c1N=C(NC(=O)c1cnc(N)nc1)N1CCN=C21 | kinase activity, inhibitor | 1 µM | reference: untreated control | remaining activity | 93% |
| CCn1cc(C(=O)O)c(=O)c2c(N)c(F)c(NC3CCCCC3)cc21 | kinase activity | 0.1 µM, added: ATP at Km | – | inhibition | -10.3% |

A few entries again:
| Compound | assay | conditions | how to read | endpoint | value |
| --- | --- | --- | --- | --- | --- |
| CN1CCN(Cc2ccc(-c3ccc(CO[C@H]4CCC[C@@H]4NC(=O)c4cc(-c5cnn(C)c5)cnc4N)cc3)cc2)CC1 | enzyme activity, inhibitor | 0.1 µM | – | inhibition | 3% |
| CNC(=O)C[C@H](Cc1ccc(C#N)cc1)NC(=O)c1cc(-c2ccc(CN[C@H](C)c3ccc(C)cc3)o2)ccc1Cl | enzyme activity, inhibitor | 1 µM | – | activity vs control | 103% |
